# Measured values gathered from unrelated publications.
# Each numbered part is a random draw from the data of one study; scales do not carry over between parts. Changes are numbered by the printed parent chain.
# Chain of UniProt Q08499 (whole entry, looked up): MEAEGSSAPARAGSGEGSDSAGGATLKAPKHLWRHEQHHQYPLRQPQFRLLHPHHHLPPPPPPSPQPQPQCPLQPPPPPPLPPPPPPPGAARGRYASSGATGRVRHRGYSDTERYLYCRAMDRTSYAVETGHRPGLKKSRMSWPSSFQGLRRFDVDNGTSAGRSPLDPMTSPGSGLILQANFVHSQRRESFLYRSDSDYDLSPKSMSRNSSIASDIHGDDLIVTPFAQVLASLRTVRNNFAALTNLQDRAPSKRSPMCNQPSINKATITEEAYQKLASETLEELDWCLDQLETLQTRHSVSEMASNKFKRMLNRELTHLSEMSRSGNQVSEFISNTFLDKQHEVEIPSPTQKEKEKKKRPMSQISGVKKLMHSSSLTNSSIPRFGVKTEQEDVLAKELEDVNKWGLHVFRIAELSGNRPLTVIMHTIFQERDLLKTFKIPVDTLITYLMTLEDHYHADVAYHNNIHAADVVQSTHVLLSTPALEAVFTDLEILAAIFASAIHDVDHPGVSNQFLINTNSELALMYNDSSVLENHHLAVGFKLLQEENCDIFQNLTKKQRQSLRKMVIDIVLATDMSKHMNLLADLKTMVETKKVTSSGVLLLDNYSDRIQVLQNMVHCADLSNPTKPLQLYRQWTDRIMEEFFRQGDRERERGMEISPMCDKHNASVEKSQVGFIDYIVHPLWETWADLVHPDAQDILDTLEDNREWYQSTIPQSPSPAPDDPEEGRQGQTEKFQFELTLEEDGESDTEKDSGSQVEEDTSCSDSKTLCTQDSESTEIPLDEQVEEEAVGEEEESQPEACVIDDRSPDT

# Set 1 — observed: binding; method: phage display NGS; form: peptide; concentration: concentration not given; setting: panning round 2; reference: input library
# Target: UDP-N-acetylglucosamine--peptide N-acetylglucosaminyltransferase 110 kDa subunit (OGT, Homo sapiens, UniProt O15294)
# Chain of UniProt O15294 (whole entry, looked up): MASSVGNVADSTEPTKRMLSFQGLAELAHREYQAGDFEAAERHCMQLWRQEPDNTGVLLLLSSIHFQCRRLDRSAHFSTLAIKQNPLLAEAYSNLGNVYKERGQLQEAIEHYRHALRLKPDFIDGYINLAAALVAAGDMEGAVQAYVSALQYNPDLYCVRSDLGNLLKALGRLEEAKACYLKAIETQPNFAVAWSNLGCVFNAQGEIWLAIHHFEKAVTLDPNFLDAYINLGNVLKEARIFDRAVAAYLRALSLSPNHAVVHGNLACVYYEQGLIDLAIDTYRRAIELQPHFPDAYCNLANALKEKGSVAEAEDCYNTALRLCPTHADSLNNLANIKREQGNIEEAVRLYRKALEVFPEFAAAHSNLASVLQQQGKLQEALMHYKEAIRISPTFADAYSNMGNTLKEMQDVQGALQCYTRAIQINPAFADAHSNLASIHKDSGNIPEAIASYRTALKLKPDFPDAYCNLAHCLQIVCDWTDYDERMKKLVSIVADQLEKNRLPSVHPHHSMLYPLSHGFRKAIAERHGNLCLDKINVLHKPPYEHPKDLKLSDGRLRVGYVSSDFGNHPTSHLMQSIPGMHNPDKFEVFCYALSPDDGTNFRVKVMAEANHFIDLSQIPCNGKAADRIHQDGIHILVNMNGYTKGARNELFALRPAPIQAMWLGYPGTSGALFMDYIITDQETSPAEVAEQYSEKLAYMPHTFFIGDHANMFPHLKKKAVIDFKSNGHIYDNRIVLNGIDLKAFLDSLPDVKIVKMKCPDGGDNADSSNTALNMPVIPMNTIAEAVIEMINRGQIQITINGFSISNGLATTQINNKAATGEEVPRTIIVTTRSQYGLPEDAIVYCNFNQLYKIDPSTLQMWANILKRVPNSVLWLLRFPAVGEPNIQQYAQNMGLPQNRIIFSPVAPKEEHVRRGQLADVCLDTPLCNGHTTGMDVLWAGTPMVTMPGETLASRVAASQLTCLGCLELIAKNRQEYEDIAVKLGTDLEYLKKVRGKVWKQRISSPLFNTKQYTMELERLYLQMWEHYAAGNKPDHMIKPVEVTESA
Molecule,enrichment fold change
YEYYQVGVHHHPLHL,5.57
SMLSHYHEVMRHHRV,4.77
HTSIAHHLHIGTIQT,6.2
YFGRVTFPPKYQIVF,28.8
VKTYEPFYLIDMNRQ,3.68
IYLPIYQIQAQWPFK,14.2
RYLPIYQILTHTQPF,11.7
RHLSHVHNVHSSNSV,4.07

# Set 2 — target: CCND2, cyclin fold, Cln2 fusion (human); method: yeast growth competition, sequencing; sample: yeast; setting: weak parent motif; reference: not given; direction: higher = stronger binding
# Starting sequence: viral docking peptide; TSVRRALFTGGSD; partner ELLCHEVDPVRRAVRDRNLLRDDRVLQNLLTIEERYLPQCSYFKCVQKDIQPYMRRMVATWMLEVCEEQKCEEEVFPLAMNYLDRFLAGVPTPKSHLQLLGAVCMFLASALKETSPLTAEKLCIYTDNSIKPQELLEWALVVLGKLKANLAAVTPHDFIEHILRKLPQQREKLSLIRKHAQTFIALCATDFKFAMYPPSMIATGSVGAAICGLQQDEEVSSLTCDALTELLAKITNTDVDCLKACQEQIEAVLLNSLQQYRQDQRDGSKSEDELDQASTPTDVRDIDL
Variant,normalised enrichment score
G11T,0.313
A6E,0.221
L7A,0.309
R4I,0.0716
R5A L7A,0.0774
A6D,0.106
A6W,-0.39
V3F,-0.259

# Set 3 — target: tungstate, free oxyanion; method: microfluidic competitive inhibition; sample: in vitro, cell-free expressed; concentration: not given; direction: lower = stronger binding
# Setting: derived from inhibition constants, unchanged parent 2230 nM
# Starting sequence: PafA, mature enzyme, eGFP fusion (Elizabethkingia meningoseptica, UniProt Q9KJX5); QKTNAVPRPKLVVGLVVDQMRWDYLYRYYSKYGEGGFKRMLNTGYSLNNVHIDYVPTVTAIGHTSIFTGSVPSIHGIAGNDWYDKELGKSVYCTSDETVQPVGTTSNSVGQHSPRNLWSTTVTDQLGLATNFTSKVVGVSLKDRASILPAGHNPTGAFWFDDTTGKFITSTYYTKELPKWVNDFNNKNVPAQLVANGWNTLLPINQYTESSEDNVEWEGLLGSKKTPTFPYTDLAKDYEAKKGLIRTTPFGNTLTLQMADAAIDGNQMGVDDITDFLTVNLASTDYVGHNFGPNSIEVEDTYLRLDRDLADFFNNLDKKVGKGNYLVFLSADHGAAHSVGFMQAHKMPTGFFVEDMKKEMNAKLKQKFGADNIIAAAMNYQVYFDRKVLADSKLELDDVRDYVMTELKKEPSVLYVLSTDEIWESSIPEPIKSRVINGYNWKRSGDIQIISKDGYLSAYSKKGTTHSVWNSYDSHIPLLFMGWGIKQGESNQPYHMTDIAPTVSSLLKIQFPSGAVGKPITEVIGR
Variant,oxyanion analog dissociation constant [µM]
V399G,2.02
G197V,2.53
G463V,1.4
D308G,2.08
Y29G,2.24
G340V,2.47
A195V,2.29
Y286V,4.9

# Single results of other studies
Structure (SMILES),target,observed,action,quantity,result
COC(=O)c1cc(N(C)C(=O)c2ccn3ncc(-c4ccc(C(=O)O)cc4)c3c2)ccc1Cl,"3',5'-cyclic-AMP phosphodiesterase 4D (PDE4D, Homo sapiens, UniProt Q08499)",cell-free assay,inhibitor,IC50,12.2 µM

# Excerpt of the above (set 1):
Molecule,enrichment fold change
RYLPIYQILTHTQPF,11.7
RHLSHVHNVHSSNSV,4.07
